# Experimental data of several laboratories.
# Parts stem from different laboratories: compare values within a part only. Substitutions count along the parent as printed.

# Series 1 — technique: DHFR PCA, deep sequencing; sample: yeast; together with: (+)-ABA 58 µM; baseline: wild-type fitted maximum; reading: higher = stronger binding
# Target: ABI1, truncated, D143A, DHFR fusion (Arabidopsis thaliana)
# Setting: methotrexate growth selection, single substitutions
# Starting sequence: PYL1, truncated, DHFR fusion (Arabidopsis thaliana); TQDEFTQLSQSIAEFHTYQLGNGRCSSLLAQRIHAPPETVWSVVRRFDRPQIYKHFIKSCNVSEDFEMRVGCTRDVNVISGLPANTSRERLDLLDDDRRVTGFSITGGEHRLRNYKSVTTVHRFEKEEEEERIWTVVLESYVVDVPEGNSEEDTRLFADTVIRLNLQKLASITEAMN
Variant,relative binding score
A84W,54.6%
F15W,94.9%
H122I,11.4%
N77H,99.7%
K54C,12.2%
G81H,17.3%
R111N,59.8%
T173A,83.8%
E127R,87.4%
P37M,46.6%
R163K,86.4%
P37D,56.7%
N149A,63.5%
C25T,88.1%
A30R,85%
T73M,83.8%
Q167C,76.1%

# Series 2 — technique: RNA Bind-n-Seq; molecule type: RNA; sample: in vitro; tested at: 1 µM; setting: whole 134-nt RNA, ends assumed; together with: 150 mM KCl; baseline: input library; reading: higher = stronger binding
# Target: Ras GTPase-activating protein-binding protein 1, RRM domain (G3BP1, Homo sapiens, UniProt Q13283)
# Chain of UniProt Q13283 (whole entry, looked up): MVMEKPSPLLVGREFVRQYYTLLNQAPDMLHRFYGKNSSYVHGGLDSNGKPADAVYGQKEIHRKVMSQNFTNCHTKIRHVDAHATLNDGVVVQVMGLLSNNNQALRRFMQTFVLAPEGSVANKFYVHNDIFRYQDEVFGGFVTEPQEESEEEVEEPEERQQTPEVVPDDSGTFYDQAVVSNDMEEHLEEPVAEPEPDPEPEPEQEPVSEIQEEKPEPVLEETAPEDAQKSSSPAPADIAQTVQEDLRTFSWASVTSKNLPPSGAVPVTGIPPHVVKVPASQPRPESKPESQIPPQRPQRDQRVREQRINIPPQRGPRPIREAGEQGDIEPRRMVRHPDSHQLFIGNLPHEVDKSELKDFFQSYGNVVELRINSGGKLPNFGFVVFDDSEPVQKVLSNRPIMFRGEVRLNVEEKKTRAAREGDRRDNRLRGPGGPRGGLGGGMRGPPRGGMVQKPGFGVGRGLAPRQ
# Constant ends, left off below: GGGAGUUCUACAGUCCGACGAUC … UGGAAUUCUCGGGUGUCAAGG
Sequence,log2 enrichment
AGUCCUGUGCUACACAUCGUAUGUACCGAAUCGGAAAAGGGGAAAAGGGAAAAGGGGAAAGUAUUAUGUUACGCCGUUCGGAUCUGCACU,0.24
GUCCUGUGCUACACAUCGUAUGUACCGAAUCGGGGCCCCCGGGGCCCCCGGGCCCCCGGAAAGUAUUAUGUUACGCCGUUCGGAUCUGCA,-0.606
UCCUGUGCUACACAUCGUAUGUACCGAAUCGGGGUUUUUGGGUUUUUGGGGUUUUUGGGGAAAGUAUUAUGUUACGCCGUUCGGAUCUGC,0.0992
AGUCCUGUGCUACACAUCGUAUGUACCGAAUCGGGAAAGGGUUUUUGGGAAAAAGGGAAAGUAUUAUGUUACGCCGUUCGGAUCUGCACU,0.317
UCCUGUGCUACACAUCGUAUGUACCGAAUCGGGGUUUGGGGAAAAAAAGGGGAAAGGGGAAAGUAUUAUGUUACGCCGUUCGGAUCUGCA,0.997
GUCCUGUGCUACACAUCGUAUGUACCGAAUCGGUUUUUUUGGUUUUUGGUUUUUUUGGAAAGUAUUAUGUUACGCCGUUCGGAUCUGCAC,-0.229
UGGAGAGGGAAGUCCCAAUGGUGCUAGAAUGGUGCUGCAGUGGCAGAAGACGGCUCACAAGUGAGGUCUGGAAGAACAACAGGGAAGACA,0.0514
UGGGAGGUGGAUUUUGUUUAUUUUUUUAGCUCAUUUCCAAGGGUGGGAAUUUUUUUUUAAUAUGUGUCAUGAAUAAAGUUGUUUUUGAAA,1.75
CAAGUCCUGUGCUACACAUCGUAUGUACCGAAUCGGAAAGGGGAAAGGGAAAGGGAAAGUAUUAUGUUACGCCGUUCGGAUCUGCACUUC,0.162
UGGGAGGUGGAUUUUGUUUAUUUUUUUAGCCCAUUUCCAGGGGUGGGAAUUUUUUUUUAAUAUGUGUCAUGAAUAAAGUUGUUUUUGAAA,1.49
CAAGUCCUGUGCUACACAUCGUAUGUACCGAAUCGGGAGGGAAAAAAAGGGUGGGAAAGUAUUAUGUUACGCCGUUCGGAUCUGCACUUC,0.745
UCCUCAAGUCCUGUGCUACACAUCGUAUGUACCGAAUCGGGCGGCGGGGCGGAAAGUAUUAUGUUACGCCGUUCGGAUCUGCACUUCCAG,-0.303
UCCUCAAGUCCUGUGCUACACAUCGUAUGUACCGAAUCGGGUGGUGGUGGGGAAAGUAUUAUGUUACGCCGUUCGGAUCUGCACUUCCAG,-0.106
GCAGGAAGUAAAAACAAAUGGAAAUGCUUCGGAUAGUGGCAGGGGUGGGGGUUGUUAAGGAAAGGGUGGGAUGGGAGUGGGUAAAGAGUU,0.914

# Series 3 — target: CEBPA, bZIP domain (human); technique: DHFR protein complementation; sample: yeast; baseline: wild-type JUN-FOS pair; reading: higher = stronger binding
# Setting: single substitutions, most at no-binding floor
# Starting sequence: JUN, bZIP domain (human); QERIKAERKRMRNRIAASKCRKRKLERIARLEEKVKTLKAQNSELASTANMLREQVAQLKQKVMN; partner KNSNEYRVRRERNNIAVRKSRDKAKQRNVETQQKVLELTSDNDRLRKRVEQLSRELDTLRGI
Variant,binding fitness
K39C,-1.49 natural log
V56T,-1.48 natural log
E54I,-1.41 natural log
K34E,-1.42 natural log
T37N,-1.32 natural log
T48A,-1.46 natural log
M51L,-1.44 natural log
Q58P,-1.55 natural log
E44P,-1.56 natural log
M51W,-1.47 natural log
E32V,-1.38 natural log
V56K,-1.64 natural log
K36H,-1.53 natural log
S47P,-1.56 natural log
A49V,-1.36 natural log
E32W,-1.49 natural log
L59W,-1.5 natural log
R53H,-1.35 natural log
K36N,-1.43 natural log
R53A,-1.27 natural log
E54L,-1.49 natural log

# Series 4 — technique: RNA Bind-n-Seq; molecule type: RNA; sample: in vitro; tested at: 365 nM; baseline: no-protein control; reading: higher = stronger binding
# Target: RNA binding protein fox-1 homolog 2, RRM domain, GST-SBP tag (RBFOX2, Homo sapiens, UniProt O43251-10, residues 100-194)
# Setting: natural RNA segment, single round, ends assumed
# Constant ends, left off below: GGGAGUUCUACAGUCCGACGAUC … UGGAAUUCUCGGGUGCCAA
# Construct (chain): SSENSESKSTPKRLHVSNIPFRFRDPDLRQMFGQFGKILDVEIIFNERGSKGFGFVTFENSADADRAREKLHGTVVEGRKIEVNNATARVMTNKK
Sequence,RBNS enrichment (R)
UAUGUCCGGGAUCUGGAUCAGAUUCUGGGGGCUCAGAAACGUCGGUUGCAUUGAGCUACUGGGGGUAGGAGUUCCAACAUUUAUGUCCAGAGCAACUUCCAGCAAGGCUG,0.271
GGUGGAAAAGACUCAAAGGCACUUGGGCCAUUCAGGACCACCCCAGCUGUGUCUGGGUUGGUGGGGAAAUGAUGGAGAACCAGCCAGUGGGGCUGUCAGCAGUGGGGGCU,0.788
GUUGUGUUUUAUGUUCUUAGAGGACAUAUUUUUGAUGAGGCCAAAACUGCUGUUCUGUUUCGUUGAUUGCAUCGAGCAUGUUUCUAUAUAAGGUGGGUACUCUGAGCAGC,13.9
UAUUGGUGAUUAUACGAGACUUCUAAUACAUAAAUGAACGGGUAUUGGUGCCUCUUUAUUUUAAAAAAUUUGAAGAAAAGAGCCACCUCAUAUUCAUAGGGUGUGUAUUU,0.32
GGUGGGGCGGGAACACACAAAUCCAGCCCCCUUUCUCCUGGCUCCCUGCUCUGGCCCUGCCCCAGAGCUGUGACCCUUGUCCUUUGACCCAGCCUCUCAUUUCCAUCUCU,0.412
UGUCUUGUUCUCUCCCAGCAAUUUAUUUUAAAACAAGGGCUAGCUUCAAGCAUGACUGUUAAUGGCUCCUCUGUGACAAAACACAAGUUGGACCAAGGAGAAAGCCCUUU,3.87
CCCAUUUGCUGCCUUUUUUGUUUUUGUGGGGGAAGGGUUGGGAGUAAGUUUAAACUCUUCCGAAGAUUAUGAAUGGGUCAGCACAAAUUUUUAGGCAACUGCUUUUUCCA,0.433
CUGGUAUCCUGCCAAGCCUGGUUGUAAUUUGUAACCAUUUUCUAUUUGUGCAAACUCUGUAAAUAUGUGUUUAAACAAAUGUAAUAUUUUGUACAAGAUACACUGGAGAA,0.311
GCUUCCCGCCAGUUUCUCUCAGUUUGCCAAAGAGACCAUUGAAUGUUUUUGAAACCAAAGAGCACACUUCAACAUACAUGGGCUGCACCAUAUUGAGAUCUGAGCCUUGG,4.17
CCUUCUGACACACAAAAAAAUGAAAGUUAAUCCUGGGUACAGCAUACAGUUUUACAUUUAAACGCACAGUCUUACGUGGACAAAUGCAAGCACAAGCCUAAAGCAAGGUC,0.289
CAGCUUUGAGCCCCAGUAUGCACUAUGCUUAAGCUCUGACGACUCUUGCGUGCAGCGAGGAGGUCCUCCCUGACAUGCUCAGCAUCCCGCAGUGAUUCCUCUCAUAGCUC,0.285
GAAUUAAUUGUAUUGUAAUAUUAUUUGUUGAAUGUAGUAAUUAGGUAUUUAUGAAUAUAUUGCUGUAAUUUCUGACAACAUCCAAAAAAUAAAAUCUUCCUAAAUUAUGU,0.455

# Series 5 — target: CCNA1, cyclin fold, Cln2 fusion (human); technique: yeast growth competition, sequencing; sample: yeast; setting: weak parent motif; baseline: not given; reading: higher = stronger binding
# Starting sequence: MICAL3 docking peptide (human); LQLRRQLSFSEDS; partner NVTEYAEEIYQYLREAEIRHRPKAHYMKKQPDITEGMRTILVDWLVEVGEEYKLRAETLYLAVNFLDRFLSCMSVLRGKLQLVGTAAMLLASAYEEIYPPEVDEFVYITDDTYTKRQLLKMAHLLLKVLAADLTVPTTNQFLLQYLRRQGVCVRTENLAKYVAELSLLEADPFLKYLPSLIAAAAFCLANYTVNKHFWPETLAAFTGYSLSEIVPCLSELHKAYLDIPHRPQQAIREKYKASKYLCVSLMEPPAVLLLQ
Variant,normalised enrichment score
LQLRRQLHFSEDS [S8H],0.995
LQLRRPLSFSEDS [Q6P],-0.0732
LQLERQLSFSEDS [R4E],-0.452
LQIRRQLSFSEDS [L3I],0.926
LQLRRQISFSEDS [L7I],0.365
LQLRRQLSFSELS [D12L],0.586
LQPRRQLSFSEDS [L3P],0.877
LQLRRQLSFSQDS [E11Q],0.29
LQLRMQLSFSEDS [R5M],0.133
LQLRRQLSFSENS [D12N],0.71
LQLRLQLSFSEDS [R5L],0.0721
LQLRRQLSFDEDS [S10D],0.312
LQLRRQLDFSEDS [S8D],0.849
LQLRRQLSFSYDS [E11Y],0.398
LQLRRQLSFSEAS [D12A],0.479
LELRRQLSFSEDS [Q2E],0.163
LQLRRQESFSEDS [L7E],0.292
LQLRRQLSFSEWS [D12W],0.235
LQLGRQLSFSEDS [R4G],-0.151
LQLRFQLSFSEDS [R5F],0.17
LQLRHQLSFSEDS [R5H],-0.0482

# Some of these lines once more (series 2):
Sequence,log2 enrichment
AGUCCUGUGCUACACAUCGUAUGUACCGAAUCGGAAAAGGGGAAAAGGGAAAAGGGGAAAGUAUUAUGUUACGCCGUUCGGAUCUGCACU,0.24
GUCCUGUGCUACACAUCGUAUGUACCGAAUCGGGGCCCCCGGGGCCCCCGGGCCCCCGGAAAGUAUUAUGUUACGCCGUUCGGAUCUGCA,-0.606
UCCUGUGCUACACAUCGUAUGUACCGAAUCGGGGUUUUUGGGUUUUUGGGGUUUUUGGGGAAAGUAUUAUGUUACGCCGUUCGGAUCUGC,0.0992
AGUCCUGUGCUACACAUCGUAUGUACCGAAUCGGGAAAGGGUUUUUGGGAAAAAGGGAAAGUAUUAUGUUACGCCGUUCGGAUCUGCACU,0.317
UCCUGUGCUACACAUCGUAUGUACCGAAUCGGGGUUUGGGGAAAAAAAGGGGAAAGGGGAAAGUAUUAUGUUACGCCGUUCGGAUCUGCA,0.997
GUCCUGUGCUACACAUCGUAUGUACCGAAUCGGUUUUUUUGGUUUUUGGUUUUUUUGGAAAGUAUUAUGUUACGCCGUUCGGAUCUGCAC,-0.229
UGGAGAGGGAAGUCCCAAUGGUGCUAGAAUGGUGCUGCAGUGGCAGAAGACGGCUCACAAGUGAGGUCUGGAAGAACAACAGGGAAGACA,0.0514
UGGGAGGUGGAUUUUGUUUAUUUUUUUAGCUCAUUUCCAAGGGUGGGAAUUUUUUUUUAAUAUGUGUCAUGAAUAAAGUUGUUUUUGAAA,1.75
CAAGUCCUGUGCUACACAUCGUAUGUACCGAAUCGGAAAGGGGAAAGGGAAAGGGAAAGUAUUAUGUUACGCCGUUCGGAUCUGCACUUC,0.162
UGGGAGGUGGAUUUUGUUUAUUUUUUUAGCCCAUUUCCAGGGGUGGGAAUUUUUUUUUAAUAUGUGUCAUGAAUAAAGUUGUUUUUGAAA,1.49
CAAGUCCUGUGCUACACAUCGUAUGUACCGAAUCGGGAGGGAAAAAAAGGGUGGGAAAGUAUUAUGUUACGCCGUUCGGAUCUGCACUUC,0.745
UCCUCAAGUCCUGUGCUACACAUCGUAUGUACCGAAUCGGGCGGCGGGGCGGAAAGUAUUAUGUUACGCCGUUCGGAUCUGCACUUCCAG,-0.303
UCCUCAAGUCCUGUGCUACACAUCGUAUGUACCGAAUCGGGUGGUGGUGGGGAAAGUAUUAUGUUACGCCGUUCGGAUCUGCACUUCCAG,-0.106
